Published values gathered from unrelated publications.
Each numbered part is a random draw from the data of one study; scales do not carry over between parts.

Study 1
Target: Histone acetyltransferase KAT6A, both winged helices, GST fusion (KAT6A, Homo sapiens, UniProt Q92794, residues 1-181)
Method: protein binding microarray
Form: double-stranded DNA, one strand shown
Sample: in vitro
Tested at: not given
Notes: 8-mer, flanks averaged, mean of 2 arrays, mostly near background
Reference: not given
Direction: higher = stronger binding
Residues (chain): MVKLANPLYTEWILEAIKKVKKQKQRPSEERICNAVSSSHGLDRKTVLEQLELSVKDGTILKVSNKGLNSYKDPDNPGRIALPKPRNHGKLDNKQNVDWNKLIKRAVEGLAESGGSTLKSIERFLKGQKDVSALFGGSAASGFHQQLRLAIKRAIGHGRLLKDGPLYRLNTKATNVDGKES
| Sequence | E-score |
| --- | --- |
| CGATTTCA | 0.0486 |
| GACAGCCC | 0.0257 |
| TAGTTATA | 0.0109 |
| GCCGAGTA | 0.199 |
| ACGTGGTA | -0.126 |

Study 2
Target: Sal-like protein 4, full length isoform A (SALL4, Homo sapiens, UniProt Q9UJQ4, residues 1-1053)
Chain of UniProt Q9UJQ4 (whole entry, looked up): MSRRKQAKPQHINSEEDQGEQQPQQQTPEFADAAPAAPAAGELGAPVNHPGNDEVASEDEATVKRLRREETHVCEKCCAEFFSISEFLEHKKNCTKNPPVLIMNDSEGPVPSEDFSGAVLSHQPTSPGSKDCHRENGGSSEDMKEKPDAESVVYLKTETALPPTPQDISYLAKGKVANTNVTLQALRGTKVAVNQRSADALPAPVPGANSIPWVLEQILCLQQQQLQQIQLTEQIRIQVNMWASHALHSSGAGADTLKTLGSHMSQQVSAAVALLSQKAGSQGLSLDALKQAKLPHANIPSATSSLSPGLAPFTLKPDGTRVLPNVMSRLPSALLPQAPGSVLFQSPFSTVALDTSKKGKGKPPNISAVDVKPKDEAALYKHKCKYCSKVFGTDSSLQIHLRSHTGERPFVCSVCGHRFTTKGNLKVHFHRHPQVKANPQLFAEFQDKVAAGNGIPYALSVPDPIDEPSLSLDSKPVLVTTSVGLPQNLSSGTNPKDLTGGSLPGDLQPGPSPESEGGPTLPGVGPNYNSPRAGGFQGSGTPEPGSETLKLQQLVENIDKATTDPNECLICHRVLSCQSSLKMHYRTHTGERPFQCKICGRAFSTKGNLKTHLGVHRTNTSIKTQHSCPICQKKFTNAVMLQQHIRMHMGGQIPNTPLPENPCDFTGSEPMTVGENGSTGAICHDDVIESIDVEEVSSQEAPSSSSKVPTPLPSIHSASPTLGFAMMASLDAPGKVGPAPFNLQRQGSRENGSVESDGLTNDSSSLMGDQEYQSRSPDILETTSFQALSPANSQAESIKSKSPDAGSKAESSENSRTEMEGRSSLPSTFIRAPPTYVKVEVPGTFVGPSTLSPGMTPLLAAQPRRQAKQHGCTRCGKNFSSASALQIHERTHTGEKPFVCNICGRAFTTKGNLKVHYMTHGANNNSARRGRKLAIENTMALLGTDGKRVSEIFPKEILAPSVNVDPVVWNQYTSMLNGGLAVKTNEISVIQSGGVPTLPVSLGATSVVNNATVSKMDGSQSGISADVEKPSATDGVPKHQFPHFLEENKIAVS
Method: universal PBM
Form: double-stranded DNA, one strand shown
Sample: in vitro
Tested at: 600 nM
Notes: 8-mer, flanks averaged, mean of replicates
Direction: higher = stronger binding
| Sequence | E-score |
| --- | --- |
| GGAGCTAA | -0.156 |
| GACTTAGC | -0.048 |
| CACGAACG | -0.104 |
| GGTTCGAA | -0.0329 |

Study 3
Target: Interferon regulatory factor 5, full length, phosphomimetic (IRF5, Homo sapiens, UniProt Q13568-2, residues 1-514, S451D/S453D/S456D/S462D)
Method: protein-binding microarray
Form: double-stranded DNA, one strand shown
Sample: in vitro
Tested at: 940 nM top
Notes: 60-bp whole probe
Added: salmon DNA 0.4 mg/ml
Reference: random background probes
Direction: higher = stronger binding
| Sequence | fitted relative affinity [z-score] |
| --- | --- |
| GCCTAGCACTTAGGTATCGAGTATCGGTTAGTGCTAGTCTTGATTCGCTTGACGCTGCTG | 6.4 |
| GCCTAGCACTCAGAATTTACTTTCTACGTGTGCTAGGTCTTGATTCGCTTGACGCTGCTG | 0.664 |
| GCCTAGCACTTGCATCTGGGTATTTTTCTGTGCTAGGTCTTGATTCGCTTGACGCTGCTG | 0.491 |
| GCCTAGCACTTAGGTTTCGCGACTGGGTTAGTGCTAGTCTTGATTCGCTTGACGCTGCTG | 2.93 |

Mixed results
| Molecule | target | assay | system | setting | how to read | measurement | result |
| --- | --- | --- | --- | --- | --- | --- | --- |
| PhoQ, residues 284 288 289 292 302 303 SLSLLA | PhoP, residues 12 14 15 18 19 DLLYY (Escherichia coli, UniProt P23836) | Sort-seq, refers to: YFP reporter | E. coli | PhoQ-PhoP variant library, added: 10 µM Mg2+ | reference: high Mg2+ state, higher = stronger signaling | fold induction | 0.851 |

Excerpt of the above (study 3):
| Sequence | fitted relative affinity [z-score] |
| --- | --- |
| GCCTAGCACTTAGGTATCGAGTATCGGTTAGTGCTAGTCTTGATTCGCTTGACGCTGCTG | 6.4 |
| GCCTAGCACTCAGAATTTACTTTCTACGTGTGCTAGGTCTTGATTCGCTTGACGCTGCTG | 0.664 |
